Results gathered from unrelated publications.
Every numbered part comes from another study and shows a few of its results, in no order. Values joined by “and” are separate records of one study, mostly repeats; a detail may differ.
Chain of UniProt P49841 (whole entry, looked up): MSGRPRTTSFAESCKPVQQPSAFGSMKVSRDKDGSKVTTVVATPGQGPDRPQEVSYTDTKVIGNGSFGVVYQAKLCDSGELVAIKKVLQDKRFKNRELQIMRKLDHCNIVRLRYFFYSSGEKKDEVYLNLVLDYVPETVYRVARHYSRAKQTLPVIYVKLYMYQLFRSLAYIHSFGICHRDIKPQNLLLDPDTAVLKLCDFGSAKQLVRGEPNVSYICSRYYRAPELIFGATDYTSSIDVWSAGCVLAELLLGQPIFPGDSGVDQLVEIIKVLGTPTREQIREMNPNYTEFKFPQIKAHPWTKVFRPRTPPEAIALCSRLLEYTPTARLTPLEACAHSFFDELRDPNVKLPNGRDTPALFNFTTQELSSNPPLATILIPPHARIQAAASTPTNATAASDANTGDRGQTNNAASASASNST
Chain of UniProt P29320 (whole entry, looked up): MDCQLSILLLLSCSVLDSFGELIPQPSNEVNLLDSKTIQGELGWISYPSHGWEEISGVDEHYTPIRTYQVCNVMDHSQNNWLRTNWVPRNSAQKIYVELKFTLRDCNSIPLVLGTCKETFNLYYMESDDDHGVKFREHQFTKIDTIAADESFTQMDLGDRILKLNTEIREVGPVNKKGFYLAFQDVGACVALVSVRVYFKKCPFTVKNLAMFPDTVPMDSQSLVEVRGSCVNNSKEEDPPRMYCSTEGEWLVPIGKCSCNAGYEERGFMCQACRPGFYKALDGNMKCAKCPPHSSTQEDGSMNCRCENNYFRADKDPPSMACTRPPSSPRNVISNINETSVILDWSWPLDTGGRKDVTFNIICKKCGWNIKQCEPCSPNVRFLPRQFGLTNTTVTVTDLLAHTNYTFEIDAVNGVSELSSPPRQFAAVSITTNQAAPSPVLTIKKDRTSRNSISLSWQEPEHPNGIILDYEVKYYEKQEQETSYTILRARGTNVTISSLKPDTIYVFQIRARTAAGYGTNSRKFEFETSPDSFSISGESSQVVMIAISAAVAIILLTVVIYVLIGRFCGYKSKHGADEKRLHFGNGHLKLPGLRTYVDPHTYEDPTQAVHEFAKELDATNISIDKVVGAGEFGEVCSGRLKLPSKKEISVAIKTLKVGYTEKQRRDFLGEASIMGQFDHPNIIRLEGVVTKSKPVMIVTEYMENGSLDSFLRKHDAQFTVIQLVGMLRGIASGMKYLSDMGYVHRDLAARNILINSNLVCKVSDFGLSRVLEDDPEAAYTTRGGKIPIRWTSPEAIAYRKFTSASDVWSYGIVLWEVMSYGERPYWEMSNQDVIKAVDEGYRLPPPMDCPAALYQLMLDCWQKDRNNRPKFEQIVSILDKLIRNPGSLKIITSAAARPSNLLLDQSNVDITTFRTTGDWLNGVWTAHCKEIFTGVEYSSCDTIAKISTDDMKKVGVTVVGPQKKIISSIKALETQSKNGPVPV
Chain of UniProt Q9Y6M4 (whole entry, looked up): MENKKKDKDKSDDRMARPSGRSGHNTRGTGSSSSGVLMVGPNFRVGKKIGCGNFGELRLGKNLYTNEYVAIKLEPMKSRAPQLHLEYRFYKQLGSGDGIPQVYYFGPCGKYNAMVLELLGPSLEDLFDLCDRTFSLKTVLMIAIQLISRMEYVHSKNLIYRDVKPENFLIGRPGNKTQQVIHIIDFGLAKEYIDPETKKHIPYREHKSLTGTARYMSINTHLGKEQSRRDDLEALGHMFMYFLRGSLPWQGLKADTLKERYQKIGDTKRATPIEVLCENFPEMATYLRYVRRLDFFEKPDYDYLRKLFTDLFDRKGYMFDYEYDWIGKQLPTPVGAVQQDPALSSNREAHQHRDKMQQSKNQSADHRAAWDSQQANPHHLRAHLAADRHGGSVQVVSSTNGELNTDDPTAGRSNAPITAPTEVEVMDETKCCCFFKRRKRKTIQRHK
Chain of UniProt Q02763 (whole entry, looked up): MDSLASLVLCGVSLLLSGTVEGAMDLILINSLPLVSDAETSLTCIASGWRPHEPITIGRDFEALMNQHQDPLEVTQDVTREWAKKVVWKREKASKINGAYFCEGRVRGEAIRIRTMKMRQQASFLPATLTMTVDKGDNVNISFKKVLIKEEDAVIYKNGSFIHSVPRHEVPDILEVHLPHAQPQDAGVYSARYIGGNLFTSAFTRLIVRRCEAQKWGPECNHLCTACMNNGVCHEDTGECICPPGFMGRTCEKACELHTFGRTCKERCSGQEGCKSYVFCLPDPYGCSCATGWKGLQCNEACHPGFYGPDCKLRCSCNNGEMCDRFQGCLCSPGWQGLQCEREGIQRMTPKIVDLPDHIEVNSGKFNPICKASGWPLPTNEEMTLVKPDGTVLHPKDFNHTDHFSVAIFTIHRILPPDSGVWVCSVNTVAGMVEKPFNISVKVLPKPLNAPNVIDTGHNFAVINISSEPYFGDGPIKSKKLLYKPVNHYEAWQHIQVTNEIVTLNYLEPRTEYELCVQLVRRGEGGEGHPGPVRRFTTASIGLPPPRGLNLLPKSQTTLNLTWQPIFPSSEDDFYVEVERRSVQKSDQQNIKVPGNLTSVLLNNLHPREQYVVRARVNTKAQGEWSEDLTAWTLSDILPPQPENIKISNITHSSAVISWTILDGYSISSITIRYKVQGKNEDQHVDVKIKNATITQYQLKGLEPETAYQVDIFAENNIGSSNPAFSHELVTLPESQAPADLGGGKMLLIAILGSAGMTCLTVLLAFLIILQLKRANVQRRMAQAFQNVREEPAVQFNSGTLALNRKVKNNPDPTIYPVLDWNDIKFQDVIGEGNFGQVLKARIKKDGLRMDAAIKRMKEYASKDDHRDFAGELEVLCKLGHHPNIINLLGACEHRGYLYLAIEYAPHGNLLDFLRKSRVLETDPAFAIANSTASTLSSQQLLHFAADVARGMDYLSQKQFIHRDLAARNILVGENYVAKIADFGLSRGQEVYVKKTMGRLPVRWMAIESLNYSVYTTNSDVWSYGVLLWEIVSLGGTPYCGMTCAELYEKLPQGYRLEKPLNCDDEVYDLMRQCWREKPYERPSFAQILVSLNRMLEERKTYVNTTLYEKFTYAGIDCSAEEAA
Chain of UniProt Q9HC98 (whole entry, looked up): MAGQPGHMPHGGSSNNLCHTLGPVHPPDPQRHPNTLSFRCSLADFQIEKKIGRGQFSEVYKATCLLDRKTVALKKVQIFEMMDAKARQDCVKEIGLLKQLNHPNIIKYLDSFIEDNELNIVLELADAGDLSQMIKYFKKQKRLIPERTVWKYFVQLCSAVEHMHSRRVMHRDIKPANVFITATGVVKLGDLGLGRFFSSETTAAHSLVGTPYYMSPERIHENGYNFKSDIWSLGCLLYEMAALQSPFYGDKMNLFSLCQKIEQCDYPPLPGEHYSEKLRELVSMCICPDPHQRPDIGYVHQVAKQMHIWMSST
Chain of UniProt Q9NRP7 (whole entry, looked up): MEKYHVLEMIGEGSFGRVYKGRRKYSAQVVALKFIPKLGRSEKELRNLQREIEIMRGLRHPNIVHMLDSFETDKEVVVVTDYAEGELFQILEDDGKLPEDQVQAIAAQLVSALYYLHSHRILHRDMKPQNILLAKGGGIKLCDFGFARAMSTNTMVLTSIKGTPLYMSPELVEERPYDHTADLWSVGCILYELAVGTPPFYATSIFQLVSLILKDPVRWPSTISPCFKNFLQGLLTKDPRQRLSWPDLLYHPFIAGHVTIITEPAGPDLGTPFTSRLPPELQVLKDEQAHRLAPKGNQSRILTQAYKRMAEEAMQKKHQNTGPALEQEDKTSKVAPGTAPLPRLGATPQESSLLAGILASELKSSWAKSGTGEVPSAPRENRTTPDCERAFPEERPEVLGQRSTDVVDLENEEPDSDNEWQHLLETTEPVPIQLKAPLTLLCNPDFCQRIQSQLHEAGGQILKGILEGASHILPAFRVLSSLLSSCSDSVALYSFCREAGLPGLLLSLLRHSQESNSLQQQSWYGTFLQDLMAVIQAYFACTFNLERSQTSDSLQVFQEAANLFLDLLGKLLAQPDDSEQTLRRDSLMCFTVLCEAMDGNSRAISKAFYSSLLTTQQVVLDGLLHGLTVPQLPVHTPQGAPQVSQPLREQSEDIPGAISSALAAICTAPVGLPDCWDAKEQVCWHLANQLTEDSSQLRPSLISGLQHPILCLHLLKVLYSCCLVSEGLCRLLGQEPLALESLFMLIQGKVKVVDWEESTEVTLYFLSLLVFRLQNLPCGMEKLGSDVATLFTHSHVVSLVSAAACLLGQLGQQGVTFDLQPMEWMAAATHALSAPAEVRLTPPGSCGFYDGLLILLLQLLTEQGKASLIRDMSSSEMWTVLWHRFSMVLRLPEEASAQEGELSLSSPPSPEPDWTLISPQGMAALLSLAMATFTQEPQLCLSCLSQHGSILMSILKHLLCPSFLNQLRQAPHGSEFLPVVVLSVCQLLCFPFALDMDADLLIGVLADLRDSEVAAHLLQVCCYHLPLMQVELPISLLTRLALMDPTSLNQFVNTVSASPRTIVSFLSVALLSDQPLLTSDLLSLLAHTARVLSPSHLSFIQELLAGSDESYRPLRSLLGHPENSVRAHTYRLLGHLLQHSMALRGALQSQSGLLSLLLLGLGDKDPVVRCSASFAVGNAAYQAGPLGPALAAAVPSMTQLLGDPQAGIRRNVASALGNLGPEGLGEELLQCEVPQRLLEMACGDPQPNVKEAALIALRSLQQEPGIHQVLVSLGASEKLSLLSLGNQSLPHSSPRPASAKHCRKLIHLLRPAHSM
Chain of UniProt O00141 (whole entry, looked up): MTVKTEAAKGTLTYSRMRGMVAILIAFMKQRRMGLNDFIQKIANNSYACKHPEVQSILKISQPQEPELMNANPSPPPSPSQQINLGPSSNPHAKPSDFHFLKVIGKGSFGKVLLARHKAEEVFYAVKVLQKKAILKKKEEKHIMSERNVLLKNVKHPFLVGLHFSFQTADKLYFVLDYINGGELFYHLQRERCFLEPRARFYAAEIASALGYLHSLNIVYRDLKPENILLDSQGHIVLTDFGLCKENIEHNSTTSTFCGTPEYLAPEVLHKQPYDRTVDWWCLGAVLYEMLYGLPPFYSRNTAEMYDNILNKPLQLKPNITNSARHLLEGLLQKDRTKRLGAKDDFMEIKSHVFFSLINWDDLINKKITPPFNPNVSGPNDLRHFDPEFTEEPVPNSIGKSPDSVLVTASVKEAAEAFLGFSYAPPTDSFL

Series 1 — organism: Sarcocystis neurona; observed: parasite growth; concentration: 10 µM; time: 96 h; notes: secondary screen
For `O=C(CCNNC(=O)c1ccncc1)NCc1ccccc1`, the inhibition was -14.2%.
`CN1[C@@H]2CC[C@H]1C[C@@H](OC(=O)c1c[nH]c3ccccc13)C2` has an inhibition of -27.8%.
`CCN1CCC[C@H]1CNC(=O)c1cc(S(N)(=O)=O)ccc1OC` has an inhibition of -5.5%.
For `CC(=O)NS(=O)(=O)c1ccc(N)cc1`, the inhibition was -8%.
For `C#C[C@]1(O)CC[C@H]2[C@@H]3CCC4=CC(=O)CC[C@@H]4[C@H]3CC[C@@]21C`, the inhibition was 4.6%.
With `Nc1nc(N)nc(-c2cc(Cl)ccc2Cl)n1` the inhibition was 17.3%.
`O=S(=O)(O)CCS` has an inhibition of -9.4%.
The inhibition of `CCCC1O[C@@H]2C[C@H]3[C@@H]4CCC5=CC(=O)C=C[C@]5(C)[C@H]4[C@@H](O)C[C@]3(C)[C@]2(C(=O)CO)O1` (some centres unmarked) is reported as -12.5%.
`Nc1nc(Cl)nc2c1ncn2[C@H]1C[C@H](O)[C@@H](CO)O1` gave an inhibition of -20.7%.

Series 2 — concentration: 0.1 µM
SMILES: C[C@H](c1ccnc(Nc2nc3ccc(-c4cc(N(C)C)ncn4)cc3[nH]2)c1)N1CCN(C(=O)CC(F)(F)F)CC1
The remaining binding was 100% (PI4KB (Homo sapiens, UniProt Q9UBF8); cell-free assay, competition with immobilised ligand).
It gave 100% for remaining binding (EPHB4 (Homo sapiens, UniProt P54760); cell-free assay, competition with immobilised ligand).
CDC42BPG (Homo sapiens, UniProt Q6DT37); competition binding — remaining binding: 79%.
For STK36 (Homo sapiens, UniProt Q9NRP7); cell-free assay, competition with immobilised ligand: remaining binding read 97%.
TYRO3 (Homo sapiens, UniProt Q06418); cell-free assay, competition with immobilised ligand — remaining binding: 96%.
It gave 100% for remaining binding (Tyrosine-protein kinase ABL1, phosphorylated (ABL1, Homo sapiens, UniProt P00519, F317L); cell-free assay, competition with immobilised ligand).
It gave 94% for remaining binding (SGK1 (Homo sapiens, UniProt O00141); cell-free assay, competition with immobilised ligand).
It gave 79% for remaining binding (NTRK1 (Homo sapiens, UniProt P04629); cell-free assay, competition with immobilised ligand).
It gave 41% for remaining binding (FLT3 (Homo sapiens, UniProt P36888, D835Y); cell-free assay, competition with immobilised ligand).

Series 3 — cell line: mouse MPNST tumor cells; technique: high-content nuclear imaging; refers to: cell number; concentration: 10 µM; time: 12 h; notes: mean of 2 replicates; relative to: plate mean; direction: higher = more cells
The nuclei count of `CCOC(=O)c1ncn2c1CN(C)C(=O)c1cc(F)ccc1-2` is reported as 1.52 z-score and 1.99 z-score.
`CCOC(=O)C1=C(C)NC(=S)NC1c1cccc(O)c1` (centres unmarked) has a nuclei count of 1.58 z-score.
`CCCc1nc2c(C)cc(-c3nc4ccccc4n3C)cc2n1Cc1ccc(-c2ccccc2C(=O)O)cc1` has a nuclei count of 1.81 z-score and -0.689 z-score.
`O=C(Nc1cc(Cl)ccc1O)Nc1cc(C(F)(F)F)ccc1Cl` has a nuclei count of 3.95 z-score.
With `Cc1cc(C)c2nc(-c3ccccn3)cc(C(=O)Nc3ccc(S(=O)(=O)Nc4onc(C)c4C)cc3)c2c1` the nuclei count was 1.16 z-score.
The nuclei count of `COCCc1ccc(OCC(O)CNC(C)C)cc1` (centres unmarked) is reported as 1.09 z-score.
With `CN(C)CCCN1c2ccccc2CCc2ccc(Cl)cc21` the nuclei count was -6.2 z-score.
The nuclei count of `CN(Cc1ccccc1)C(=O)[C@H](Cc1ccc2ccccc2c1)NC(=O)[C@@H]1C[C@@H](O)CN1C(=O)c1cn(C)c2ccccc12` is reported as 0.555 z-score.
The nuclei count of `CS(=O)(=O)CCNCc1nc(-c2ccc3ncnc(Nc4ccc(OCc5cccc(F)c5)c(Cl)c4)c3c2)cs1` is reported as 2.74 z-score.

Series 4 — SMILES: N#Cc1c(NC(=O)c2cccc3ccccc23)sc2c1CCCC2; observed: enzyme activity; action: inhibitor; concentration: 0.5 µM; relative to: control
It gave 102% for remaining activity (LCK (Homo sapiens, UniProt P06239)).
It gave 99% for remaining activity (MAP3K5 (Homo sapiens, UniProt Q99683)).
The remaining activity was 97.5% (GSK3B (Homo sapiens, UniProt P49841)).
The remaining activity was 101% (NEK6 (Homo sapiens, UniProt Q9HC98)).
The remaining activity was 101% (JAK3 (Homo sapiens, UniProt P52333)).
ACVR1B (Homo sapiens, UniProt P36896) — remaining activity: 96.5%.
For WEE1 (Homo sapiens, UniProt P30291): remaining activity read 88.9%.
For GRK7 (Homo sapiens, UniProt Q8WTQ7): remaining activity read 116%.
It gave 103% for remaining activity (EPHA3 (Homo sapiens, UniProt P29320)).
It gave 97.9% for remaining activity (MERTK (Homo sapiens, UniProt Q12866)).
The remaining activity was 104% (TEK (Homo sapiens, UniProt Q02763)).
For CSNK1G3 (Homo sapiens, UniProt Q9Y6M4): remaining activity read 104%.
For ULK2 (Homo sapiens, UniProt Q8IYT8): remaining activity read 112%.
For FGFR3 (Homo sapiens, UniProt P22607): remaining activity read 101%.

For quick reference, copied from above (series 4):
For WEE1 (Homo sapiens, UniProt P30291): remaining activity read 88.9%.
It gave 103% for remaining activity (EPHA3 (Homo sapiens, UniProt P29320)).
For FGFR3 (Homo sapiens, UniProt P22607): remaining activity read 101%.
It gave 97.9% for remaining activity (MERTK (Homo sapiens, UniProt Q12866)).
For GRK7 (Homo sapiens, UniProt Q8WTQ7): remaining activity read 116%.
The remaining activity was 101% (NEK6 (Homo sapiens, UniProt Q9HC98)).
